Measurements gathered from unrelated publications.
Compare with care: the assays were run in different laboratories. ± marks the error that the study gave.
Sequence of UniProt P51659 (whole entry, looked up): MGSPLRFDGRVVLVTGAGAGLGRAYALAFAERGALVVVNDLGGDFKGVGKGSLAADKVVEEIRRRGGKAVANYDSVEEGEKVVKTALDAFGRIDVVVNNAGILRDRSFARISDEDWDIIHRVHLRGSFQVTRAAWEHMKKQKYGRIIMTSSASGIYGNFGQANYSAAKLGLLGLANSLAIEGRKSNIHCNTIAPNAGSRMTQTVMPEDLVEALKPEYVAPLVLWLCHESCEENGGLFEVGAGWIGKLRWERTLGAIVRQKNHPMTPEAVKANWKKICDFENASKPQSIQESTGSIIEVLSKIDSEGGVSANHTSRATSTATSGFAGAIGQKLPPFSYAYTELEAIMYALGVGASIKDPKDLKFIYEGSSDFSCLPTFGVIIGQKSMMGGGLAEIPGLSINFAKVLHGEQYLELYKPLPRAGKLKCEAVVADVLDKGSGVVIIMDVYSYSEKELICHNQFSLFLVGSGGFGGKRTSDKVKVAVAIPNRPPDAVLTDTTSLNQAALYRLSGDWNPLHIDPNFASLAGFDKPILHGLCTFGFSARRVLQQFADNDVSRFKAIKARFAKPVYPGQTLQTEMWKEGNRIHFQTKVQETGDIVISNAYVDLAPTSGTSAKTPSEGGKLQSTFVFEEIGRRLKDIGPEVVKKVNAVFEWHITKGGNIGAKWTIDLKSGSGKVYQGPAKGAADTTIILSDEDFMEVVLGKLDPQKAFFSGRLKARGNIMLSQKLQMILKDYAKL

SMILES	tested on	assay	test system	setting	how to read	endpoint	result
Cc1cccc(C(=O)N2CCN(Cc3cccc(NC(=O)c4ccco4)c3)CC2)c1	Plasmodium falciparum	parasite growth, SYBR Green	3D7 DHODH E182D	72 h		EC50	1.32 ± 0.11 µM
O[C@@H]1[C@H](O)[C@@H]2C[C@@H]2[C@H]1n1cnc2c(NC(C3CC3)C3CC3)nc(Cl)nc21	respiratory syncytial virus	viral replication, visual cytopathic effect	MA104, A2			EC50	32 µM
COCc1ccccc1C(=O)NCCOc1cc(C)cc(C)c1	Plasmodium falciparum	parasite growth				EC50	0.0535 ± 0.0079 µM
Nc1ncnc2c1ncn2C[C@H](O)CO	respiratory syncytial virus	viral replication	HeLa			EC50	> 250 µM
COCCn1c2nc(=O)n(-c3ccccc3)c(=O)c-2nc2ccccc21	Dengue virus 2	viral replication	replicon			EC50	11.4 µM
COc1ccc(-c2ncnc3[nH]cc(C#Cc4cccnc4)c23)cc1OC	dengue virus 2	viral replication	Huh-7			EC50	2.62 ± 0.07 µM
CCc1cc2c(cc1CC)CC(NC[C@@H](O)c1ccc(O)c3[nH]c(=O)ccc13)C2	Plasmodium falciparum	parasite growth, SYBR Green	3D7 wild type	72 h		EC50	0.457 ± 0.028 µM
CCN(CC)CCO[C@H]1CC[C@@]2(C)C(=CC[C@@H]3[C@@H]2CC[C@]2(C)C(=O)CC[C@@H]32)C1	human rotavirus	viral replication, focus reduction	MA104, DS-1	pretreated 20 h before infection		EC50	5.84 µM
COc1ccc([C@@]23Oc4cc(OC)cc(OC)c4[C@]2(O)[C@H](O)[C@H](C(=O)N(C)C)[C@H]3c2ccccc2)cc1	Hepatitis C virus	viral replication	Huh-7.5.1, JFH-1 genotype 2a (HCVcc)			EC50	~0.004 µM
CCOC(=O)N1CCC(=C2c3ccc(Cl)cc3CCc3cccnc32)CC1	Plasmodium falciparum		HB3			IC50	6.31 µM
Cc1[nH]c(C)c(-c2ccc(OCCn3cnc(Cl)c3Cl)cc2)c(=O)c1Br	Plasmodium falciparum	parasite growth, SYBR Green	3D7 wild type	72 h		EC50	1.1 ± 0.18 µM
COc1ccc(-c2ccnc3[nH]cc(C#Cc4cccnc4)c23)cc1F	dengue virus 2	viral replication	Huh-7			EC50	0.92 ± 0.1 µM
CC(c1ccc(Cl)c(Cl)c1)c1nn2c(-c3ccccc3F)nnc2s1 (centres unmarked)	Plasmodium falciparum	parasite growth, SYBR Green	3D7 wild type	72 h		EC50	0.0502 ± 0.0052 µM
C[C@H]1CN(c2n[nH]c3nc(N[C@H]4CC[C@H](NS(=O)(=O)CCC(F)(F)F)CC4)ncc23)CCO1	Peroxisomal multifunctional enzyme type 2 (HSD17B4, Homo sapiens, UniProt P51659)	inhibitor, Kinobeads competition profiling		0.16 µM	baseline: vehicle	relative abundance	1
COc1ccc(NC(=O)N2CCCCN3[C@H](CN(C)C)[C@H](c4ccc(C#Cc5ccccc5)cc4)[C@@H]3C2)cc1	Cryptosporidium parvum	luciferase	HCT-8, parent strain	48 h		EC50	0.029 µM
C(#Cc1c[nH]c2nccc(-c3cccs3)c12)c1cccnc1	dengue virus 2	viral replication	Huh-7			EC50	5.59 ± 0.46 µM
COC(=O)N[C@H](C(=O)N1CCC[C@H]1c1ncc(-c2ccc(-c3ccc(-c4cnc([C@@H]5CCCN5C(=O)[C@@H](NC(=O)OC)C(C)C)[nH]4)cc3)cc2)[nH]1)C(C)C	hepatitis C virus	viral replication, transient replicon	genotype 1a NS5A L31V			EC50	0.021 µM
OC(c1cc(C(F)(F)F)nc2c(C(F)(F)F)cccc12)C1CCCCN1 (centres unmarked)	Plasmodium falciparum	parasite growth	Dd2			EC50	0.00803 ± 0.003 µM
O=c1ccn([C@@H]2O[C@H](CO)[C@@H](O)[C@H]2O)c(=S)[nH]1	Zika virus	viral replication	BHK-21, ZIKV			EC50	5 µM
C(#Cc1c[nH]c2nccc(-c3cccnc3)c12)c1cccnc1	dengue virus 2	viral replication	Huh-7			EC50	3.2 ± 0.47 µM
C[C@@]1(O)[C@H](O)[C@@H](CO)O[C@H]1n1ccc2c(N)ncnc21	dengue virus 2	viral replication	Huh-7.5.1, Renilla luciferase reporter	48 h		EC50	1.1 µM
C(#Cc1c[nH]c2nccc(-c3ccncc3)c12)c1cccnc1	dengue virus 2	viral replication	Huh-7			EC50	1.87 ± 0.47 µM
CCCC1O[C@@H]2C[C@H]3[C@@H]4CCC5=CC(=O)C=C[C@]5(C)[C@H]4[C@@H](O)C[C@]3(C)[C@]2(C(=O)CO)O1 (some centres unmarked)	Plasmodium falciparum		HB3			IC50	3.98 µM

For quick reference, copied from above:
SMILES	tested on	assay	test system	setting	how to read	endpoint	result
C[C@@]1(O)[C@H](O)[C@@H](CO)O[C@H]1n1ccc2c(N)ncnc21	dengue virus 2	viral replication	Huh-7.5.1, Renilla luciferase reporter	48 h		EC50	1.1 µM
Cc1cccc(C(=O)N2CCN(Cc3cccc(NC(=O)c4ccco4)c3)CC2)c1	Plasmodium falciparum	parasite growth, SYBR Green	3D7 DHODH E182D	72 h		EC50	1.32 ± 0.11 µM
C(#Cc1c[nH]c2nccc(-c3cccnc3)c12)c1cccnc1	dengue virus 2	viral replication	Huh-7			EC50	3.2 ± 0.47 µM
